Measured values from different studies.
A part holds a random share of what one study measured. Changes are numbered by the printed parent chain.

Block 1
Target: UBE2D2 UBC core domain (UniProt P62837)
Chain of UniProt P62837 (whole entry, looked up): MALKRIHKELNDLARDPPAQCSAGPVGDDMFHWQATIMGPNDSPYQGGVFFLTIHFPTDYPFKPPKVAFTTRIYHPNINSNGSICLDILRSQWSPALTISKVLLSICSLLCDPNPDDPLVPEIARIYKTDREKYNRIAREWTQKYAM
Technique: yeast two-hybrid
Medium: yeast
Notes: mostly zero background
Relative to: not given
Direction: higher = stronger interaction
B1: TRIM35 RING domain (UniProt Q9UPQ4); chain PSRSFKEELLCAVCYDPFRDAVTLRCGHNFCRGCVSRCWEVQVSPTCPVCKDRASPADLRT
B2: TRIM52 RING domain (UniProt Q96A61); chain PMQTLQEEAVCAICLDYFKDPVSISCGHNFCRGCVTQLWSKEDEEDQNEEEDEWEEEEDEEAV
B3: TRIM15 RING domain (UniProt Q9C019); chain SLKVVHELPACTLCAGPLEDAVTIPCGHTFCRLCLPALSQMGAQSSGKILLCPLCQEEEQAETPMA
B4: RNF32 RING domain (UniProt Q9H0A6); chain SLLQGDSVQPCPICKEEFELRPQVLLSCSHVFHKACLQAFEKFTNKKTCPLCRKNQYQTRVIH
B5: RNF4 RING domain (UniProt P78317); chain TGLRPSGTVSCPICMDGYSEIVQNGRLIVSTECGHVFCSQCLRDSLKNANTCPTCRKKINHKRYHP
B6: TRIM10 RING domain (UniProt Q9UDY6); chain SVTSLADEVNCPICQGTLREPVTIDCGHNFCRACLTRYCEIPGPDLEESPTCPLCKEPFRPGSFRP
B7: RNF149 RING domain (UniProt Q8NC42); chain EKGIDVDAENCAVCIENFKVKDIIRILPCKHIFHRICIDPWLLDHRTCPMCKLDVIKALGYW
Sequence	lacZ reporter activity
B1 (TRIM35 RING domain)	0
MANWVFCNRCFQPPHRTSCFSLTNCGHVYCDACLGKGKKNECLICKAPCRTVLLSK (RNF212 RING domain (UniProt Q495C1))	0
B2 (TRIM52 RING domain)	0
B3 (TRIM15 RING domain)	0
B4 (RNF32 RING domain)	0
B5 (RNF4 RING domain)	3420
B6 (TRIM10 RING domain)	0
B7 (RNF149 RING domain)	0

Block 2
Target: RING finger protein unkempt homolog, zinc fingers 1-6, SBP tag (UNK, Homo sapiens, UniProt Q9C0B0, residues 30-357)
Chain of UniProt Q9C0B0 (30-357, looked up): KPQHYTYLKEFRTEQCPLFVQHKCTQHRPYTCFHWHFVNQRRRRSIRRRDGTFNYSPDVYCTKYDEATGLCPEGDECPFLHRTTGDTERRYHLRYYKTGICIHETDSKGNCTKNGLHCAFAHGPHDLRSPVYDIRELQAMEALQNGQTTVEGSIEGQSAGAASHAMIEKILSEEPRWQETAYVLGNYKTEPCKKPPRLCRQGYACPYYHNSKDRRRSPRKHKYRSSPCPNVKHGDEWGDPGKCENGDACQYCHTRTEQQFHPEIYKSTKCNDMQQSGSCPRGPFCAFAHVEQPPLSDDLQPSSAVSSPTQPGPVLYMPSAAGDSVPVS
Technique: RNA Bind-n-Seq
Form: RNA
Medium: in vitro
Concentration: 100 nM
Notes: RNA with constant flanks, vertebrate orthologous sites, ends assumed
Relative to: input RNA pool
Direction: higher = stronger binding
Constant ends, left off below: GGGAGUUCUACAGUCCGACGAUC … CAACAGAGGAUUGAGCAUCA
Strand	bound/input enrichment [ratio]
GCACAUGCCACUGUCACCAAAAAUGAACUACCACUUUCCAAAUUCCAUUCAGAGCCAUUUUAGUGUUUUCCUAUUCCCUACCCCUCCCACUACUUUCAAUGAUGAAAUACCCUAAGUUCU	2.69
AUGAUAGAUAAGAAUGUAUAUCAGAUGCUGGAUGUAGAAUGAAACCAUCACUUAGCAUAGGGUUUGUCUGUCAUAACUGAUCUAUAGCUAGGUUUCCUUAAACCAGAGAUGCACUGCCCU	0.226
GGAAAAUUUUAAUCAAGAAUCAGAAGGUAGAAGUACAGGACCGUGGUUGUCUUCCUCCCUUAGAAAUAGAUGCACACCUUUGUUCUCUAGGAGGAGGCGAGAGGGAAGAGAUGAAUCUUC	0.761
GUCCUCUGAUUGGAUGAAGACUGUUCCGAGUUAUAACCAAACAAAUAGCUCCAUGGACUUCAGAAAUUAUAUGAUGAGAGAUGAGAACCUGGAACCACUGCCCAAAAACUGGGAAAUGGC	0.293
AAUGCAAGAACUCUUACAGUCUUAGGUGUGAUAACGGCAGAUCUGAACUGUAAGAGUUAUUAGUGCAGGGUUUUUUUUUUUGUUGUUGUUGUUGUUGGUUUUUUUGGGGGGGUACAAGGC	2.56
ACGAAAGGCCAAAUUCCCUCCUCCCUUCUACUGCUUCUACCAACUGGAAGCACAGAAAACUAGAAUUUCAUUUAUUUUGUUUUUAAAAUAUAUAUGUUGAUUUCUUGUAACAUCCAAUAG	0.773
CACAUCUGGUGAUAUUUGGCCUGGCCUUUCAGCAUAUGAUAAUAGUCCCAGAUCACCUCAUAGUCCUUCACCAAUUGCUACACCACCUAGUCAGAGUUCAUCUUGCUCUGAUGCCCCCAU	1.06
UAGGUCUGGGGUAGAAGGGAGGGAAGGGGCAGGAUACGUGAAAUCUCUAGGGUGUAUGGGGAGGUAGGGGGCACAGUUAGUUCUAAGUGGGCUUUUAUGUUACCUUUUGGGACAACAACA	1.78

Block 3
Target: HLA class I histocompatibility antigen, A alpha chain, allele A*80:01 (Homo sapiens, UniProt P04439)
Observed: peptide-MHC binding
Form: peptide
Concentration: concentration not given
Sequence	binding
ITLFPSYQL	inactive
LQNFCQHLV	inactive
FTIGNMFSL	inactive
SLGDPLHQA	inactive
WKAIGAYIL	inactive
MTDLSKKGY	inactive
ATRSHRPLI	inactive
YLIPSVTSL	inactive

Block 4
Target: Sal-like protein 4, full length isoform B (SALL4, Homo sapiens, UniProt Q9UJQ4-2, residues 1-616)
Technique: universal PBM
Form: double-stranded DNA, one strand shown
Medium: in vitro
Concentration: not given
Notes: 8-mer, flanks averaged, mean of replicates
Direction: higher = stronger binding
Strand	E-score
CGCGAGGA	-0.328
ACCTCTTA	0.0718
GATGGGAA	0.0195
CTTTAGCC	0.122
CAAATTGC	0.142
AGTGTACC	-0.0533
AGTGGTCG	-0.171
ATTGGCCC	-0.111

Block 5
Target: CCND1, cyclin fold, Cln2 fusion (human)
Technique: yeast growth competition, sequencing
Medium: yeast
Notes: weak parent motif
Relative to: not given
Direction: higher = stronger binding
Starting sequence: viral docking peptide; TSVRRALFTGGSD; partner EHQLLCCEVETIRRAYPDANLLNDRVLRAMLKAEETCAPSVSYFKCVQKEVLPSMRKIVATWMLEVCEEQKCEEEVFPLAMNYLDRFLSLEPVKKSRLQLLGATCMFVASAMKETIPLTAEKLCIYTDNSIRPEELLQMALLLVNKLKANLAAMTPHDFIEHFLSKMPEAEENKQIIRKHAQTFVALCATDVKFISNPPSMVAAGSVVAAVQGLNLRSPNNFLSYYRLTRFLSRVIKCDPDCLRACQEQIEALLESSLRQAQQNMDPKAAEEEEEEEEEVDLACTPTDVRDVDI
Variant	normalised enrichment score
R5W	0.346
G11R	0.218
R5V	0.279
S2V	0.143
L7V	0.0781
A6K	0.306
V3N	-0.17
F8I	-0.242
R4V	0.179
G11P	0.753
R5Q	0.188
G10P	0.254
V3R	0.31
L7A	0.157
G10S	0.494
S12E	0.696
V3P	0.561
T9G	0.627
S12Q	0.499
A6S	0.0411
R5D	0.131
S12A	0.37
G10W	0.616
G10R	0.74
V3Q	-0.348
